Published values from different studies.
PIP4K2C: Phosphatidylinositol 5-phosphate 4-kinase type-2 gamma (PIP4K2C, Homo sapiens, UniProt Q8TBX8)
Sequence of UniProt Q8TBX8 (whole entry, looked up): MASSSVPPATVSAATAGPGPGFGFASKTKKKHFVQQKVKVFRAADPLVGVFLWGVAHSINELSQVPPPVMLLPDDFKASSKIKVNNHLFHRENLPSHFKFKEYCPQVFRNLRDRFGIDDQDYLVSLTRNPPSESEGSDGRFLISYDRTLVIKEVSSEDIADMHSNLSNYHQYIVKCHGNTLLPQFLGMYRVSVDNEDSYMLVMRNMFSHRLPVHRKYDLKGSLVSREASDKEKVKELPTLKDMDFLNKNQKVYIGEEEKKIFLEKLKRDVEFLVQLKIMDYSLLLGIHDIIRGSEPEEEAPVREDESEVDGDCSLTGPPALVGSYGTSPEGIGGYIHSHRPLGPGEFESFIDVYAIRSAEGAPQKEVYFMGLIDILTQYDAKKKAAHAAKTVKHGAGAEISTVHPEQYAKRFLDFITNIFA
AMY2: Pancreatic alpha-amylase (AMY2, Sus scrofa, UniProt P00690)
Sequence of UniProt P00690 (whole entry, looked up): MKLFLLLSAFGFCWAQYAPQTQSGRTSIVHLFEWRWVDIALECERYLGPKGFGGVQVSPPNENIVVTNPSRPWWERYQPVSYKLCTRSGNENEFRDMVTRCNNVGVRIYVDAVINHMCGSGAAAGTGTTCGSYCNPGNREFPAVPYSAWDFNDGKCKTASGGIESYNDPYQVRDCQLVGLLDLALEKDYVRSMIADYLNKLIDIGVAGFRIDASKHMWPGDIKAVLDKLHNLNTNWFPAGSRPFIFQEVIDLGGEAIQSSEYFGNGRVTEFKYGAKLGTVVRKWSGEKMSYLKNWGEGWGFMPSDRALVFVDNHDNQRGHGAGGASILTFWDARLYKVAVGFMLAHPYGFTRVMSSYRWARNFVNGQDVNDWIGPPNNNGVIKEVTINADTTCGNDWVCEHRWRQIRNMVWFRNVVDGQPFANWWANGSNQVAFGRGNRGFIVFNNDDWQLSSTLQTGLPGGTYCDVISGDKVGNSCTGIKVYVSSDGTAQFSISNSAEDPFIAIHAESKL
rep main protease: Replicase polyprotein 1ab, main protease (rep, Porcine epidemic diarrhea virus, UniProt P0C6Y4)
NT5E: 5'-nucleotidase (NT5E, Homo sapiens, UniProt P21589)
Sequence of UniProt P21589 (whole entry, looked up): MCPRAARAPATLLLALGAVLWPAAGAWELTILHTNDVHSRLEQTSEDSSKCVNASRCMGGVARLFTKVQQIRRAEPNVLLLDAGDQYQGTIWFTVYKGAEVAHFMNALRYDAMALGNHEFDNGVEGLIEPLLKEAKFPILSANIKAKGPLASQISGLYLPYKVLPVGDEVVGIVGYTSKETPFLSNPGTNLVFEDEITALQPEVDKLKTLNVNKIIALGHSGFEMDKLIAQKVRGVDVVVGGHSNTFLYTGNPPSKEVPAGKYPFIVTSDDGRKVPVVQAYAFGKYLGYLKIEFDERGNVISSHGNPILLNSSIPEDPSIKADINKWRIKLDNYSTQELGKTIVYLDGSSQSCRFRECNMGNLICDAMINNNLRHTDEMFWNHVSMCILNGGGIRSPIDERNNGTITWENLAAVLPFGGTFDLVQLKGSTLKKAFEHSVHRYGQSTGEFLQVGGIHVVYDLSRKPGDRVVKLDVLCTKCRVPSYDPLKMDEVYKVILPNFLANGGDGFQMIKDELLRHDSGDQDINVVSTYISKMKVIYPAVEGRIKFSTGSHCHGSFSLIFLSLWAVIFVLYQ
SLC6A2: Sodium-dependent noradrenaline transporter (SLC6A2, Homo sapiens, UniProt P23975)
Sequence of UniProt P23975 (whole entry, looked up): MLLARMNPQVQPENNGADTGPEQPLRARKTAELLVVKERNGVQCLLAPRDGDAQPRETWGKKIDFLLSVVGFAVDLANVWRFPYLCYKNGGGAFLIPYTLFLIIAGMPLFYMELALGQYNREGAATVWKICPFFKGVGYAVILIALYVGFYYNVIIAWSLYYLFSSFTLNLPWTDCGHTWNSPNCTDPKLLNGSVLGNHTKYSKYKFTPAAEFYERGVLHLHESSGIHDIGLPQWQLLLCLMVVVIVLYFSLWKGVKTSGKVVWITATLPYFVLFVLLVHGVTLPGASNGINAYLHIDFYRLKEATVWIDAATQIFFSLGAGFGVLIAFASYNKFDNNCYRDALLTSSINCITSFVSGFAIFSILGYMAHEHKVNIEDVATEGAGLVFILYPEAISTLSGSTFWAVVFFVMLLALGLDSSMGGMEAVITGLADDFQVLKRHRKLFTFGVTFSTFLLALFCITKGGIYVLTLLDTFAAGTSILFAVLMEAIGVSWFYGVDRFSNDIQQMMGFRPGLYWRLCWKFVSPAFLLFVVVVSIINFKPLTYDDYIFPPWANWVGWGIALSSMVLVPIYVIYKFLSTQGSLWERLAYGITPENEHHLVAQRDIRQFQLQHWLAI
MAOB: Amine oxidase [flavin-containing] B (MAOB, Homo sapiens, UniProt P27338)
Sequence of UniProt P27338 (whole entry, looked up): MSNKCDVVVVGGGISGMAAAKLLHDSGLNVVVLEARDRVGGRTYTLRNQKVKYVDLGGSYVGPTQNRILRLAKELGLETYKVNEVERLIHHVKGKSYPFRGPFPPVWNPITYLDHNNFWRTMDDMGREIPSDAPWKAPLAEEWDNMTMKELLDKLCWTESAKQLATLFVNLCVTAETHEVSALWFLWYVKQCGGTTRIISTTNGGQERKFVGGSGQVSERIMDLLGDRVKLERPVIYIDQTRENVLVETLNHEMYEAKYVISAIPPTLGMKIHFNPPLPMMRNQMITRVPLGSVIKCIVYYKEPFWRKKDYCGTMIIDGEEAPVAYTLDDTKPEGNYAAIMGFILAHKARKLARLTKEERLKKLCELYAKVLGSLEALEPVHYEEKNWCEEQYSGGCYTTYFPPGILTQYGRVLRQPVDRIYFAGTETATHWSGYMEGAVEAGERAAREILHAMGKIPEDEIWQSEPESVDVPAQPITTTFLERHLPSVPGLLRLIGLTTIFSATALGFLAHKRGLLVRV
SLC22A11: Solute carrier family 22 member 11 (SLC22A11, Homo sapiens, UniProt Q9NSA0)
Sequence of UniProt Q9NSA0 (whole entry, looked up): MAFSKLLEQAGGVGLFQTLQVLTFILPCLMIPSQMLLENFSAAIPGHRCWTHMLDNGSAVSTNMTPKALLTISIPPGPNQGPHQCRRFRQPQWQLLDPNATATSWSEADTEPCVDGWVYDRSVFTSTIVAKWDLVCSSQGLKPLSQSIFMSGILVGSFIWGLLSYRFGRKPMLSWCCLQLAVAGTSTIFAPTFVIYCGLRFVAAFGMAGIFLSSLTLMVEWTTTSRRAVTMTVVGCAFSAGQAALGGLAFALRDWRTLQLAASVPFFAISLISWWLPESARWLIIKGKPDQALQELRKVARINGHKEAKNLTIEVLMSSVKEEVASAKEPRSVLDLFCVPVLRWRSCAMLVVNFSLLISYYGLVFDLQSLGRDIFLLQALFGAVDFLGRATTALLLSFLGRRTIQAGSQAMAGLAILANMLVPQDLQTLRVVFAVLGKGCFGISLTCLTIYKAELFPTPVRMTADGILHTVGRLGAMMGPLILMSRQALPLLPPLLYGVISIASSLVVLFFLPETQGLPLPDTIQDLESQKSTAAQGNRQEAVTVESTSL
rep papain-like protease: Replicase polyprotein 1ab, papain-like protease (rep, Porcine epidemic diarrhea virus, UniProt P0C6Y4)
CDK7 with cyclin H: Cyclin-dependent kinase 7, with cyclin H (CDK7, Homo sapiens, UniProt P50613)
Sequence of UniProt P50613 (whole entry, looked up): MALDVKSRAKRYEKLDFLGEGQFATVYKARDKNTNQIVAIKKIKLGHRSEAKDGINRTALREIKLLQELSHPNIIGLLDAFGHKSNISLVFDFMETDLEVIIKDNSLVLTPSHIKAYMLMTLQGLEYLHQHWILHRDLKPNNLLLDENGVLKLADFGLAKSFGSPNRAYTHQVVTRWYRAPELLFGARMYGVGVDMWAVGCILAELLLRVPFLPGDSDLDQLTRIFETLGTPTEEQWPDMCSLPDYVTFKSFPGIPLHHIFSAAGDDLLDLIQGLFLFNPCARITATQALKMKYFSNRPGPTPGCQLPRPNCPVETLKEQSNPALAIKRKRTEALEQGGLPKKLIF
Sequence of UniProt P19801 (whole entry, looked up): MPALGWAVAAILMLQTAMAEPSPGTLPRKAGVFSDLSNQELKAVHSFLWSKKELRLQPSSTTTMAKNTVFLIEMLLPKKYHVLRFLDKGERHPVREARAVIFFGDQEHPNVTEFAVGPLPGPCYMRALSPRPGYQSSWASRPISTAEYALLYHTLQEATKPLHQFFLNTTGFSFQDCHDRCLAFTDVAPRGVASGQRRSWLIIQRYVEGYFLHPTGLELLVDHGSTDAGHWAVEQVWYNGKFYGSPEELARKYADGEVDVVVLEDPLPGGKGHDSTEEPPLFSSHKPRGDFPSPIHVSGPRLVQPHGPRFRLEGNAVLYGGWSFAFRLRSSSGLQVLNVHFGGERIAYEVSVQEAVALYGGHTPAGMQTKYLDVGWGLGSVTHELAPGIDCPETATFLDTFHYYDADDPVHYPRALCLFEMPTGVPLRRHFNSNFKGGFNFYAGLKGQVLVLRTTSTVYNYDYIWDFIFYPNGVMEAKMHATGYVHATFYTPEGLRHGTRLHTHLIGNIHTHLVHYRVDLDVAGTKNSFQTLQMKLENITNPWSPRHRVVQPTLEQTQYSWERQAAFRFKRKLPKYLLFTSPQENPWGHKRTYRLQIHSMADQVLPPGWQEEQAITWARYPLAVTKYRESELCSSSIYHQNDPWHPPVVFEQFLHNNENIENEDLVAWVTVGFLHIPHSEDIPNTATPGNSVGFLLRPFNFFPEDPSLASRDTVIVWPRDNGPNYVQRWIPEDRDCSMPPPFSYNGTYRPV
Sequence of UniProt P30559 (whole entry, looked up): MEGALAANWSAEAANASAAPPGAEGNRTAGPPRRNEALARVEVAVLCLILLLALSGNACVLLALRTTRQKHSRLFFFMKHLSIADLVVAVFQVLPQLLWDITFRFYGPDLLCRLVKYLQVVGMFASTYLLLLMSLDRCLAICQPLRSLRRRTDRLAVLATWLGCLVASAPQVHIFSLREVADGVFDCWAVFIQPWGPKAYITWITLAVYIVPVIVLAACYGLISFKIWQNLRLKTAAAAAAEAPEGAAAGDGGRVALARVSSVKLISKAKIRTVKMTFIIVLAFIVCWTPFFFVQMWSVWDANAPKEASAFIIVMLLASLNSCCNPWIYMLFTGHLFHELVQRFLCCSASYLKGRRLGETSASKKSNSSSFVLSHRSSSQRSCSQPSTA
Sequence of UniProt Q00535 (whole entry, looked up): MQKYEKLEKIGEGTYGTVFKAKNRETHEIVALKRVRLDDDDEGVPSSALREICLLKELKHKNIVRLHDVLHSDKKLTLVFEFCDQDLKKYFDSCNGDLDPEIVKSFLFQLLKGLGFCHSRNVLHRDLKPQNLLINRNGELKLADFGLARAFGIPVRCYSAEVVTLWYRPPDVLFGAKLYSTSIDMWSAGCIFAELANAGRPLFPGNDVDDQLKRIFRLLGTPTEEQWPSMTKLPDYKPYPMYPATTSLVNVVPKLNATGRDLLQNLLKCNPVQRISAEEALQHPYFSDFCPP

CCCCC(=O)Nc1ccc(-c2ccc3ncn(CC4CC4)c(=O)c3c2)cn1 — inhibition (PIP4K2C; binding, competition with immobilised ligand; 0.5 µM): 99.7%
CC[C@H](C)[C@H](NC(=O)[C@H](CCC(N)=O)NC(=O)[C@@H](NC(=O)[C@H](CCSC)NC(=O)[C@H](CCCCN)NC(=O)[C@H](CO)NC(=O)[C@@H](NC(=O)[C@H](CCSC)NC(=O)[C@H](CC(C)C)NC(=O)[C@H](CC(N)=O)NC(=O)[C@@H](NC(=O)[C@@H](NC(=O)[C@H](CO)NC(=O)[C@H](CC(C)C)NC(=O)[C@H](C)NC(=O)[C@H](CCCNC(=N)N)NC(=O)[C@H](CCC(=O)O)NC(=O)[C@H](Cc1ccc(O)cc1)NC(=O)[C@H](Cc1ccccc1)NC(=O)[C@H](C)NC(=O)[C@H](CC(N)=O)NC(=O)[C@@H](N)CCCCN)[C@@H](C)CC)[C@@H](C)CC)[C@@H](C)O)C(C)C)C(=O)N[C@@H](CC(N)=O)C(=O)N[C@H](C(=O)O)C(C)C — inhibition (Cyclin-dependent kinase 5, with p25 (CDK5, Homo sapiens, UniProt Q00535); enzyme activity, inhibitor, radiometric; 500 µM): 85%
CC(=O)c1nn(CC(=O)N2C[C@H](F)C[C@H]2C(=O)Nc2cccc(Br)n2)c2ccc(-c3cnc(C)nc3)cc12 — inhibition (PLAU (Homo sapiens, UniProt P00749); enzyme activity, inhibitor; 10 µM): 2.5%
CCN(O)N=Nc1ccc(S(=O)(=O)Nc2cc(C)on2)cc1 — inhibition (AMY2; enzyme activity, inhibitor; 60 µg/mL): 31.6%
CN1CC(Oc2cnc(C#N)cc2-c2ccn3nc(NC(=O)C4CC4)cc3c2)C1 — inhibition (LTK (Homo sapiens, UniProt P29376); enzyme activity, inhibitor; 1 µM): -3%
COc1cc(CNC(=O)c2ccc(Cl)s2)cc(Br)c1OC — inhibition (rep main protease; enzyme activity, inhibitor, FRET; 10 µM): 42.6%
Cc1cc(C(F)(F)F)c2c(N)c(C(=O)Nc3ccon3)sc2n1 — inhibition (NT5E; enzyme activity, inhibitor; 10 µM): -18%
CCN1/C(=C/C(C)=O)Sc2ccc(F)cc21 — inhibition (Oxytocin receptor (OXTR, Homo sapiens, UniProt P30559); ligand displacement, radioligand; 10 µM): 3.45%
Cc1cc(C(F)(F)F)c2c(N)c(C(=O)Nc3cccnc3)sc2n1 — inhibition (NT5E; enzyme activity, inhibitor; 10 µM): 0%
Cc1noc(NS(=O)(=O)c2ccc(N=NN(C)O)cc2)c1C — inhibition (AMY2; enzyme activity, inhibitor; 240 µg/mL): 63.2%
CCOC(=O)[C@@]12C[C@@H]1[C@@H](n1cnc3c(Nc4ccccc4)nc(I)nc31)[C@H](O)[C@@H]2O — inhibition (SLC6A2; ligand displacement, radioligand; 10 µM): 23%
COc1cc(NC(=O)c2ccc3c(c2)C(=O)NC3=O)ccc1Cl — inhibition (MAOB; enzyme activity, inhibitor; 1 µM): 54.4%
Cc1ccc(N(O)N=Nc2ccc(S(=O)(=O)Nc3onc(C)c3C)cc2)cc1 — inhibition (AMY2; enzyme activity, inhibitor; 300 µg/mL): 57.9%
CCCCc1nc(Cl)c(CO)n1Cc1ccc(-c2ccccc2-c2nn[nH]n2)cc1 — inhibition (SLC22A11; transporter uptake, inhibitor; 25 µM): 50 to 90%
COC(=O)c1ccc(NC(=O)CCSc2nc(C)cc(C)c2C#N)cc1 — inhibition (NT5E; enzyme activity, inhibitor; 10 µM): 25%
COc1cc(CNC(=O)c2ccccc2C)cc(Br)c1OC — inhibition (rep papain-like protease; enzyme activity, inhibitor, FRET; 10 µM): 98.2%
CCc1nn(C)c2nc(-c3ccc(C(=O)O)cc3)nc(NCc3ccc(F)cc3)c12 — inhibition (PDE3B (Homo sapiens, UniProt Q13370); enzyme activity, inhibitor, radiometric; 10 µM): 2%
CCN(O)N=Nc1ccc(S(=O)(=O)Nc2nccs2)cc1 — inhibition (AMY2; enzyme activity, inhibitor; 240 µg/mL): 52.6%
O=C(NCc1cc(O)c(O)c(Br)c1)c1cccs1 — inhibition (rep main protease; enzyme activity, inhibitor, FRET; 10 µM): 45.9%
COc1cc(CNC(=O)CSc2nc(C)cc(-c3ccccc3)c2C#N)cc(OC)c1OC — inhibition (NT5E; enzyme activity, inhibitor; 10 µM): 29%
NC/C(=C\F)COc1cccc(Cn2c(=S)[nH]c(=O)c3[nH]cnc32)c1 — inhibition (AOC1 (Homo sapiens, UniProt P19801); enzyme activity, inhibitor; 37 nM): 3.22%
Cc1cc(O)c(-c2ccc([C@@H](C)CN(C)C)cc2)c2c1[nH]c(=O)c1sccc12 — inhibition (Tyrosine-protein kinase JAK1, JH1 (JAK1, Homo sapiens, UniProt P23458); enzyme activity, inhibitor; 0.1 µM): 0.218%
COc1c2occc2c(OC)c2c(=O)cc(C)oc12 — inhibition (CDK7 with cyclin H; enzyme activity, inhibitor, ADP detection; 10 µM): 10.5%
CCCCn1cnc2ccc(-c3ccc(NC(C)=O)nc3)cc2c1=O — inhibition (PIP4K2C; binding; 0.5 µM): 85.8%
COc1cc(CNC(=O)c2ccccc2SC)cc(Br)c1OC — inhibition (rep main protease; enzyme activity, inhibitor, FRET; 10 µM): 19.9%
COc1cc(C2Oc3cc([C@H]4Oc5cc(O)cc(O)c5C(=O)[C@@H]4O)ccc3OC2CO)ccc1O (stereo partly shown) — inhibition (CDK7 with cyclin H; enzyme activity, inhibitor, ADP detection; 10 µM): 27%
O=C(NCc1cc(O)c(O)c(Br)c1)c1ccco1 — inhibition (rep papain-like protease; enzyme activity, inhibitor, FRET; 10 µM): 91.5%
COc1ccc(NC(=O)c2ccc3c(c2)C(=O)NC3=O)cc1Cl — inhibition (MAOB; enzyme activity, inhibitor; 1 µM): 32.4%
Cc1ncc([N+](=O)[O-])n1C(=NO)c1ccccc1C(F)(F)F — inhibition (MARK4 (Homo sapiens, UniProt Q96L34); enzyme activity, inhibitor; 10 µM): 98.7%
CCCCC(=O)Nc1ccc(-c2ccc3ncn(CCC)c(=O)c3c2)c(F)n1 — inhibition (PIP4K2C; binding, competition with immobilised ligand; 0.5 µM): 99.3%
COc1cc(CNC(=O)c2ccc(OC(F)(F)F)cc2)cc(Br)c1OC — inhibition (rep main protease; enzyme activity, inhibitor, FRET; 10 µM): 25.9%
COc1ccc(Cl)cc1-c1cc(=O)[nH]c(=S)n1CC(N)=O — inhibition (Myeloperoxidase (MPO, Homo sapiens, UniProt P05164); enzyme activity, inhibitor, fluorescence; 3.333 µM): 97%
O=C(NCc1cc(O)c(O)c(Br)c1)c1ccncc1Cl — inhibition (rep main protease; enzyme activity, inhibitor, FRET; 10 µM): 102%
Cc1cccc(NC(=O)c2sc3nc(C)cc(C(F)(F)F)c3c2N)n1 — inhibition (NT5E; enzyme activity, inhibitor; 10 µM): 32%
O=C(NCc1cc(O)c(O)c(Br)c1)c1ccc(Cl)c(F)c1 — inhibition (rep main protease; enzyme activity, inhibitor, FRET; 10 µM): 105%
CCCN(O)N=Nc1ccc(S(=O)(=O)Nc2onc(C)c2C)cc1 — inhibition (AMY2; enzyme activity, inhibitor; 60 µg/mL): 36.8%
COc1ccc(-c2cc(=O)c3c(O)c(OC)c(OC)c(OC)c3o2)cc1 — inhibition (CDK7 with cyclin H; enzyme activity, inhibitor, ADP detection; 10 µM): 43.4%
CCCN(O)N=Nc1ccc(S(=O)(=O)Nc2cc(C)on2)cc1 — inhibition (AMY2; enzyme activity, inhibitor; 300 µg/mL): 68.4%
CCOC(=O)[C@@]12C[C@@H]1[C@@H](n1ccc3c(NCCCCCc4ccccc4)nc(C#Cc4ccccc4)nc31)[C@H](O)[C@@H]2O — inhibition (SLC6A2; ligand displacement, radioligand; 10 µM): 67%
Cc1cccc(N(O)N=Nc2ccc(S(=O)(=O)Nc3cc(C)on3)cc2)c1 — inhibition (AMY2; enzyme activity, inhibitor; 20 µg/mL): 10.5%
O=c1cc(-c2ccc(O)cc2)oc2cc(O)cc(O)c12 — inhibition (SLC22A11; transporter uptake, inhibitor; 25 µM): 84.4%
Cc1noc(NS(=O)(=O)c2ccc(N=NN(O)c3ccccc3)cc2)c1C — inhibition (AMY2; enzyme activity, inhibitor; 180 µg/mL): 52.6%
COC(=O)c1ccc(NC(=O)c2sc3nc(C)cc(C)c3c2N)cc1 — inhibition (NT5E; enzyme activity, inhibitor; 10 µM): -32%

A few entries again:
CCc1nn(C)c2nc(-c3ccc(C(=O)O)cc3)nc(NCc3ccc(F)cc3)c12 — inhibition (PDE3B (Homo sapiens, UniProt Q13370); enzyme activity, inhibitor, radiometric; 10 µM): 2%
CCN(O)N=Nc1ccc(S(=O)(=O)Nc2nccs2)cc1 — inhibition (AMY2; enzyme activity, inhibitor; 240 µg/mL): 52.6%
O=C(NCc1cc(O)c(O)c(Br)c1)c1cccs1 — inhibition (rep main protease; enzyme activity, inhibitor, FRET; 10 µM): 45.9%
COc1cc(CNC(=O)CSc2nc(C)cc(-c3ccccc3)c2C#N)cc(OC)c1OC — inhibition (NT5E; enzyme activity, inhibitor; 10 µM): 29%
NC/C(=C\F)COc1cccc(Cn2c(=S)[nH]c(=O)c3[nH]cnc32)c1 — inhibition (AOC1 (Homo sapiens, UniProt P19801); enzyme activity, inhibitor; 37 nM): 3.22%
Cc1cc(O)c(-c2ccc([C@@H](C)CN(C)C)cc2)c2c1[nH]c(=O)c1sccc12 — inhibition (Tyrosine-protein kinase JAK1, JH1 (JAK1, Homo sapiens, UniProt P23458); enzyme activity, inhibitor; 0.1 µM): 0.218%
